# Experimental data gathered from unrelated publications.
# Lines come from different studies, so protocols differ. ± marks the error that the study gave.
Structure (SMILES),cell line,assay,conditions,CC50 [µM]
CCC(C)OP(=O)(O)Oc1c2c(c(OP(=O)(O)OC(C)CC)c3c1C1CC3c3cc4c(cc31)C1CC4c3ccccc31)C1CC2c2cc3c(cc21)C1CC3c2ccccc21 (centres unmarked),Caco-2,CellTiter-Glo,2 days,274
CC[C@H](C)[C@H](NC(=O)[C@H](CCCCN)NC(=O)[C@H](CC(N)=O)NC(=O)[C@H](Cc1c[nH]c2ccccc12)NC(=O)[C@H](Cc1ccccc1)NC(=O)[C@H](CCCCN)NC(=O)[C@H](CCCNC(=N)N)NC(=O)[C@H](CC(C)C)NC(=O)[C@H](Cc1c[nH]c2ccccc12)NC(=O)[C@H](CCCCN)NC(=O)[C@H](CCCNC(=N)N)NC(=O)[C@H](CC(C)C)NC(=O)CNC(C)=O)C(=O)N[C@@H](CCCCN)C(=O)N[C@@H](CCCNC(=N)N)C(N)=O,T cells,CCK-8,24 h,36.7
CC(C)OC(=O)[C@H](C)N[P@](=O)(OC[C@H]1O[C@@H](n2ccc(=O)[nH]c2=O)[C@@](F)(Br)[C@@H]1O)Oc1ccccc1,Huh-7,MTS,4 days,72.4
CCCCCCCCOP(=O)(O)Oc1c2c(c(OP(=O)(O)OCCCCCCCC)c3c1C1CC3c3cc4c(cc31)C1CC4c3ccccc31)C1CC2c2cc3c(cc21)C1CC3c2ccccc21,Caco-2,CellTiter-Glo,2 days,123
CCN(CC)CCCC(C)Nc1c2cc(Cl)ccc2nc2ccc(OC)cc12 (centres unmarked),U2OS-ACE2-GFP,,20 (unit not given),2.41
O=c1nc(NO)ccn1[C@@H]1O[C@H](CO)[C@@H](O)[C@H]1O,Huh-7,MTS,4 days,80.3
CC[C@H](C)[C@@H]1NC(=O)[C@H](CCCCN)NC(=O)[C@H](CCCCN)NC(=O)[C@H](Cc2ccc(O)cc2)NC(=O)[C@H](CC(C)C)NC(=O)[C@@H]2CCCN2C(=O)[C@H](C)NC(=O)CNC(=O)CNC(=O)[C@H](CO)NC(=O)CNC(=O)CNC(=O)[C@H](CO)NC(=O)[C@H]([C@@H](C)O)NC(=O)[C@H](CC(C)C)NC(=O)[C@H](CC(C)C)NC(=O)[C@H](C)NC(=O)[C@H](Cc2c[nH]c3ccccc23)NC(=O)[C@H](Cc2ccc(O)cc2)NC(=O)[C@H](Cc2c[nH]cn2)NC(=O)[C@H](CCC(=O)O)NC(=O)[C@H](Cc2ccccc2)NC(=O)[C@H]([C@@H](C)O)NC(=O)[C@H](CC(C)C)NC(=O)[C@@H]2CCCN2C(=O)CNC(=O)CNC(=O)CSC[C@@H](C(N)=O)NC(=O)[C@H](CC(C)C)NC(=O)[C@H](CCCCN)NC(=O)[C@H](CCCCN)NC(=O)[C@H]([C@@H](C)CC)NC1=O,K562,resazurin,24 h,> 32
OC[C@H]1[C@@H](O)[C@@H](O)CN1Cc1ccccc1,BJ,MTS,72 h,> 200
COc1ccc2nc3ccc(C(F)(F)F)cc3c(Nc3cc(CN4CCCC4)c(O)c(CN4CCCC4)c3)c2c1,U2OS-ACE2-GFP,,20 (unit not given),4.36
O=P(O)(OCc1cccc2ccccc12)Oc1c2c(c(OP(=O)(O)OCc3cccc4ccccc34)c3c1C1CC3c3cc4c(cc31)C1CC4c3ccccc31)C1CC2c2cc3c(cc21)C1CC3c2ccccc21,Caco-2,CellTiter-Glo,2 days,75.9
CC[C@H](C)[C@H](NC(=O)[C@H](CCCN)NC(=O)[C@H](CC(N)=O)NC(=O)[C@H](CC(C)C)NC(=O)[C@H](Cc1ccccc1)NC(=O)[C@H](CCCN)NC(=O)[C@H](CCCNC(=N)N)NC(=O)[C@H](CC(C)C)NC(=O)[C@H](CC(C)C)NC(=O)[C@H](CCCN)NC(=O)[C@H](CCCNC(=N)N)NC(=O)[C@H](CC(C)C)NC(=O)CNC(C)=O)C(=O)N[C@@H](CCCN)C(=O)N[C@@H](CCCNC(=N)N)C(N)=O,T cells,CCK-8,24 h,17.8
CCCCCCCOP(=O)(O)Oc1c2c(c(OP(=O)(O)OCCCCCCC)c3c1C1CC3c3cc4c(cc31)C1CC4c3ccccc31)C1CC2c2cc3c(cc21)C1CC3c2ccccc21,Caco-2,CellTiter-Glo,2 days,213
Cc1ccc(NCCN(C)CCNc2ccnc3cc(Cl)ccc23)c2c(=O)c3ccccc3sc12,"Vero E6, HeLa, HEK293T, Huh7.5",nuclei count,"16 h, mean of four cell lines",> 25
O=C(c1ccc(Cl)cc1)N1CCCC2=CC3CC(CN4CCCCC34)C21 (centres unmarked),Huh-7,cytotoxicity,,> 267
CC(C)OC(=O)C(C)NP(=O)(OCC1OC(n2ccc(=O)[nH]c2=O)C(F)(Cl)C1O)Oc1ccccc1 (centres unmarked),CEM,MTS,4 days,> 100
Cc1ccc(NCC(=O)N2CCCC3=CC4CC(CN5CCCCC45)C32)cc1 (centres unmarked),Huh-7,cytotoxicity,,> 267
COc1ccc2nc3ccc(F)cc3c(Nc3ccc(O)c(CN4CCCC4)c3)c2c1,U2OS-ACE2-GFP,,20 (unit not given),4.03
O=C1C(O)=C(Nc2ccccc2Cl)C(=O)c2ccccc21,Calu-3,cell growth or viability,72 h,77
CC(C)C1=C[C@@]23CC[C@@H]4[C@](C)(CCC[C@@]4(C)C(=O)OCC#CCN4CCCC4)[C@H]2C[C@@H]1[C@H]1C(=O)CCC(=O)[C@H]13,MDCK,"cytotoxicity, MTT",48 h,69
O=C1Nc2ccc(Cl)cc2C1=Cc1c(Cl)[nH]c2c1ccc1ccccc12,NCI-60 cell panel,,"48 h, panel mean",51.3
C=C(C)[C@@H]1CC[C@]2(CO)CC[C@]3(C)[C@H](CC[C@@H]4[C@@]5(C)CCCNC(C)(C)[C@@H]5CC[C@]43C)[C@@H]12,HFF primary foreskin fibroblasts,"cell viability, CellTiter-Glo",,18.7
c1nc(N2CCCCCC2)cnc1CNC12CC3CC(CC(C3)C1)C2,A549,MTT,,> 100
O=S(=O)(c1ccc(Cl)cc1)N1CCCC2=CC3CC(CN4CCCCC34)C21 (centres unmarked),Huh-7,cytotoxicity,,> 267
[N-]=[N+]=NCCOP(=O)(O)Oc1c2c(c(OP(=O)(O)OCCN=[N+]=[N-])c3c1C1CC3c3cc4c(cc31)C1CC4c3ccccc31)C1CC2c2cc3c(cc21)C1CC3c2ccccc21,Caco-2,CellTiter-Glo,2 days,> 300
CC(=NCc1ccccc1)c1c(C)cc(=O)n(O)c1O,HepDES19,,,13.8 ± 7.22
COc1ccc2cc1Oc1cc3c(cc1OC)CCN(C)C3Cc1ccc(cc1)Oc1c(O)c(OC)cc3c1C(C2)N(C)CC3 (centres unmarked),Huh-7,"cell growth or viability, MTT",24 h,42.7
CCCCCCCCCCCCC1O[C@@H]2C[C@H]3[C@@H]4CCC5=CC(=O)C=C[C@]5(C)[C@H]4[C@@H](O)C[C@]3(C)[C@]2(C(=O)CO)O1 (some centres unmarked),human cells,,,> 30
O=C(CCN(CCC(=O)N[C@@H](Cc1c[nH]c2ccccc12)C(=O)O)C(=O)CCN(CCC(=O)N(CCC(=O)N[C@@H](Cc1c[nH]c2ccccc12)C(=O)O)CCC(=O)N[C@@H](Cc1c[nH]c2ccccc12)C(=O)O)C(=O)[C@H]1C[C@@H](C(=O)N(CCC(=O)N(CCC(=O)N[C@@H](Cc2c[nH]c3ccccc23)C(=O)O)CCC(=O)N[C@@H](Cc2c[nH]c3ccccc23)C(=O)O)CCC(=O)N(CCC(=O)N[C@@H](Cc2c[nH]c3ccccc23)C(=O)O)CCC(=O)N[C@@H](Cc2c[nH]c3ccccc23)C(=O)O)C[C@@H](C(=O)N(CCC(=O)N(CCC(=O)N[C@@H](Cc2c[nH]c3ccccc23)C(=O)O)CCC(=O)N[C@@H](Cc2c[nH]c3ccccc23)C(=O)O)CCC(=O)N(CCC(=O)N[C@@H](Cc2c[nH]c3ccccc23)C(=O)O)CCC(=O)N[C@@H](Cc2c[nH]c3ccccc23)C(=O)O)C1)N[C@@H](Cc1c[nH]c2ccccc12)C(=O)O,MT4,,,> 100
CCN(CC)CC#CCOC(=O)[C@]1(C)CCC[C@@]2(C)[C@H]1CC=C1C=C(C(C)C)CC[C@@H]12,MDCK,"cytotoxicity, MTT",48 h,24
CCOP(=O)(O)Oc1c2c(c(OP(=O)(O)OCC)c3c1C1CC3c3cc4c(cc31)C1CC4c3ccccc31)C1CC2c2cc3c(cc21)C1CC3c2ccccc21,Caco-2,CellTiter-Glo,2 days,> 300
CC[C@H](C)[C@H](NC(=O)CNC(=O)[C@H](CO)NC(=O)[C@H](CC(C)C)NC(=O)[C@@H](N)Cc1ccccc1)C(=O)N[C@H](C(=O)NCC(=O)N[C@@H](CCSC)C(=O)N[C@@H](CC(C)C)C(=O)NCC(=O)N[C@@H](CCCCN)C(=O)N[C@@H](CC(C)C)C(=O)N[C@@H](Cc1ccccc1)C(N)=O)C(C)C,Swiss mouse peritoneal macrophages,MTT,,1000 ± 0.02
O=C(CN1CCCC2=CC3CC(CN4CCCCC34)C21)Nc1cc(Br)ccc1F (centres unmarked),Huh-7,cytotoxicity,,222
CCCC[C@@H](O)C[C@@H](C)C[C@H](NC(=O)[C@@H]1C[C@H](C)CN1C(=O)/C=C/[C@@H](C)CC)C(=O)N[C@H](C(=O)NC(C)(C)C(=O)N[C@@H](CC(C)C)C(=O)N[C@@H](CC(C)C)C(=O)NC(C)(C)C(=O)NC(C)(C)C(=O)NCCC(=O)N[C@@H](C)CNC)[C@H](O)C(C)C,C2C12,"cell growth or viability, imaging",72 h,> 1.5
COc1cccc(CN2CCCC3=CC4CC(CN5CCCCC45)C32)c1 (centres unmarked),Huh-7,cytotoxicity,,> 267
COc1ccc2nc3ccc(Cl)cc3c(Nc3ccc(O)c(CN4CCCC4)c3)c2c1,U2OS-ACE2-GFP,,20 (unit not given),3.2
O=S(=O)(c1ccc(Cl)c(Cl)c1)N1CCCC2=CC3CC(CN4CCCCC34)C21 (centres unmarked),Huh-7,cytotoxicity,,> 267
CN(C)Cc1cc(Nc2c3ccc(Cl)cc3nc3ccc(Cl)cc23)cc(CN(C)C)c1O,U2OS-ACE2-GFP,,20 (unit not given),> 50
O=C(c1cc(Cl)cc(Cl)c1)N1CCCC2=CC3CC(CN4CCCCC34)C21 (centres unmarked),Huh-7,cytotoxicity,,170
CC[C@H](C)[C@H](NC(=O)[C@H](CCCN)NC(=O)[C@H](CC(N)=O)NC(=O)[C@H](Cc1c[nH]c2ccccc12)NC(=O)[C@H](Cc1ccccc1)NC(=O)[C@H](CCCN)NC(=O)[C@H](CCCNC(=N)N)NC(=O)[C@H](CC(C)C)NC(=O)[C@H](Cc1c[nH]c2ccccc12)NC(=O)[C@H](CCCN)NC(=O)[C@H](CCCNC(=N)N)NC(=O)[C@H](CC(C)C)NC(=O)CNC(C)=O)C(=O)N[C@@H](CCCN)C(=O)N[C@@H](CCCNC(=N)N)C(N)=O,T cells,CCK-8,24 h,20.5
O=C(CNc1ccc(I)cc1)N1CCCC2=CC3CC(CN4CCCCC34)C21 (centres unmarked),Huh-7,cytotoxicity,,107
COc1ccc2nc3ncccc3c(Nc3cc(CN4CCCC4)c(O)c(CN4CCCC4)c3)c2c1,U2OS-ACE2-GFP,,20 (unit not given),26.3

# A few entries again:
Structure (SMILES),cell line,assay,conditions,CC50 [µM]
COc1ccc2nc3ccc(Cl)cc3c(Nc3ccc(O)c(CN4CCCC4)c3)c2c1,U2OS-ACE2-GFP,,20 (unit not given),3.2
O=S(=O)(c1ccc(Cl)c(Cl)c1)N1CCCC2=CC3CC(CN4CCCCC34)C21 (centres unmarked),Huh-7,cytotoxicity,,> 267
CN(C)Cc1cc(Nc2c3ccc(Cl)cc3nc3ccc(Cl)cc23)cc(CN(C)C)c1O,U2OS-ACE2-GFP,,20 (unit not given),> 50
O=C(c1cc(Cl)cc(Cl)c1)N1CCCC2=CC3CC(CN4CCCCC34)C21 (centres unmarked),Huh-7,cytotoxicity,,170
CC[C@H](C)[C@H](NC(=O)[C@H](CCCN)NC(=O)[C@H](CC(N)=O)NC(=O)[C@H](Cc1c[nH]c2ccccc12)NC(=O)[C@H](Cc1ccccc1)NC(=O)[C@H](CCCN)NC(=O)[C@H](CCCNC(=N)N)NC(=O)[C@H](CC(C)C)NC(=O)[C@H](Cc1c[nH]c2ccccc12)NC(=O)[C@H](CCCN)NC(=O)[C@H](CCCNC(=N)N)NC(=O)[C@H](CC(C)C)NC(=O)CNC(C)=O)C(=O)N[C@@H](CCCN)C(=O)N[C@@H](CCCNC(=N)N)C(N)=O,T cells,CCK-8,24 h,20.5
